Experimental data of several laboratories.
A part holds a random share of what one study measured. Positions count from the first letter of the parent shown.

Series 1 — target: CCNB1, cyclin fold, Cln2 fusion (human); method: yeast growth competition, sequencing; matrix: yeast; notes: weak parent motif; baseline: not given; direction: higher = stronger binding; measurement: normalised enrichment score
Starting sequence: SLBP docking peptide (human); ARYKRKLLINDFG
F12G: 1.03
Y3S: 1.06
K6T: 0.75
L8T: 0.77
K6G: 0.585
N10W: 0.813
R5H: 0.167
K4L: 0.196
G13Y: 1.12
G13H: 1.31
K4T: 0.26
L7P: 0.285
F12E: 0.901
G13D: 0.267
I9N: 0.71
K4W: 0.827
D11A: 1.16
D11E: 0.996
G13W: 0.441
I9C: 0.774
Y3F: 0.383
Y3C: 0.396
L8D: 0.232
R2L: 0.53
L8N: 0.861

Series 2 — target: CREB3L4, bZIP domain (human); method: DHFR protein complementation; matrix: yeast; baseline: wild-type JUN-FOS pair; direction: higher = stronger binding; measurement: binding fitness
Notes: single substitutions, most at no-binding floor
Starting sequence: JUN, bZIP domain (human); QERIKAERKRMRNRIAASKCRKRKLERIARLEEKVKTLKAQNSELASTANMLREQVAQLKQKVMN; partner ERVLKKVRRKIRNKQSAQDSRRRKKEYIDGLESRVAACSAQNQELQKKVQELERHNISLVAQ
R53G: -1.49 natural log
E32L: -1.2 natural log
V35I: -1.54 natural log
A40L: -1.45 natural log
R53K: -1.15 natural log
E33I: -1.56 natural log
A46G: -1.29 natural log
E32A: -1.44 natural log
E54S: -1.48 natural log
L45I: -1.48 natural log
I28E: -1.47 natural log
A57T: -1.46 natural log
L45T: -1.5 natural log
A40S: -1.52 natural log
E32K: -1.49 natural log

Series 3 — method: DHFR PCA, deep sequencing; matrix: yeast; together with: (+)-ABA 4.8 µM; baseline: wild-type fitted maximum; direction: higher = stronger binding; measurement: relative binding score
Target: ABI1, truncated, D143A, DHFR fusion (Arabidopsis thaliana)
Notes: methotrexate growth selection, single substitutions
Starting sequence: PYL1, truncated, DHFR fusion (Arabidopsis thaliana); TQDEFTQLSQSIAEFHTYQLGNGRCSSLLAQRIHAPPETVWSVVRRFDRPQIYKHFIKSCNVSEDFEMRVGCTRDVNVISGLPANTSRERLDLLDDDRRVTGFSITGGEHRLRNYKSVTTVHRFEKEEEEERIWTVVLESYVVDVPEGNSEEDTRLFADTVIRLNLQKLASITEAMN; partner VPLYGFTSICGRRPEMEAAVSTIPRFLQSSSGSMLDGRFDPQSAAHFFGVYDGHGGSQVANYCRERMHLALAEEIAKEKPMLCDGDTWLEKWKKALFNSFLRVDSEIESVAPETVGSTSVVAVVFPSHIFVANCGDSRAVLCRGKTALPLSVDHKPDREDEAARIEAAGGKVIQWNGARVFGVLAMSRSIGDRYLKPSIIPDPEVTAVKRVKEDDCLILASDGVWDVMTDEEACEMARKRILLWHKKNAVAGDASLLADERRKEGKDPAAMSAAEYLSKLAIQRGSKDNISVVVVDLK
R69N: 56.3%
V62E: 5.22%
E139D: 0.935%
T135F: -7.98%
T154R: -0.813%
R113Y: 36.8%
A13D: 65.4%
Y115D: -15.4%
L82G: 26.4%
P50T: -18.8%
E38T: 33.3%
M68Y: 45.3%
K58D: 29.8%
E109A: 39%
G81T: 9.29%

Series 4 — method: RNA Bind-n-Seq; molecule type: RNA; matrix: in vitro; concentration: 365 nM; baseline: no-protein control; direction: higher = stronger binding; measurement: RBNS enrichment (R)
Target: RNA binding protein fox-1 homolog 2, RRM domain, GST-SBP tag (RBFOX2, Homo sapiens, UniProt O43251-10, residues 100-194)
Notes: natural RNA segment, single round, ends assumed
All sequences stand within: GGGAGUUCUACAGUCCGACGAUC … UGGAAUUCUCGGGUGCCAA
Target sequence (chain): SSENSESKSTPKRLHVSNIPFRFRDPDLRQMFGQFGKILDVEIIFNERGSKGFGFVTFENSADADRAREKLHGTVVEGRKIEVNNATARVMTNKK
CUCUGGGCUUGACCAGUUCCCAAUCUCGUCCUCUGUCCCCAACUUCUUAAGCACAAUUGGGCUUCUUCCAUCUCCAGGUUUUCUGCCAUUCUUAACCAAGGCUGCCUCUU: 0.401
AAAUAACACAGUUGGGUGUAGGCAUGGUAAAUCUGAGCAGUCCAUCCUUAGUAUGGUGGAAAGAUUUGUACCCUGACCCGCUCGAGUGGUGGUAGAUGUAUGUAAAUUAG: 0.839
CACACCACAAAUCUGCAGUUCAUUCUGUUUAUCCCAGGCAUUAAAUUCCUAAUUUCUCUAGAUAUUUAAGAAUGGCACACACUUUAAAUAUUUAUGGGUGAAUUGAUGCC: 0.736
UACCUUACUAGUAUGACUAUUAUCUUGACUUCUGGUAAUUUAUGUUCACUAUUCCAUUUGUGAAGUGUACUUUCAUUCUAAAGCCUCAGUAUAAGGCAUCCUAACUUACA: 0.672
AGAAUUAAAGAUACUACAUAGGGGCCCUUGGGUAAGCAAAUCCAUUUUUCCCAGAGGCUAUCUUGAUUCUUUGGAAUGUUUAAAGUGUGCCUUGCCAGAGAGCUUACGAU: 0.499
GGUGGGUGACACGCCUUUAAUCUCAGCACUUGGGAGGAAGAGGCAGGUGAAUCUCUGGGUUAGGACCAGUAUGGUUUGCAUAGCAAGUUCCAGAGUACACAGUGAAACAC: 0.351
GGAACACUGUACUGGCCACUUACCCUCUGGGGCCUCAGCUUUCCCUCCGGAAGGCUGGGAGGAGGUGGGCUAGAUGAUCUUUGGAGCUUAAGGAGUCCCAGCCCUUUCUC: 0.435
CUUUCAGCUGUGGCAUCUGUGGCAAAAGCUUCUCCCAACGGUCAGCACUUAUCCCCCACGCCCGCAGCCACGCCCGUGAAAAGCCCUUCAAGUGCCCAGAGUGCGGCAAG: 0.821
UUUUUGUAGUUUUGGUAUUUAAAGCAAAAAAACGAAAAACAAAAAACAAAAACAAACCUUUUGGUAACUGUGCACUGUGUCCUUUAGCCAGGGCCGUGCCAACUUAUGAA: 0.441
GGCCUCAGUUGCCCUGGCAGAAAAAUGGAUUCAACUUGGCCUUUCUGAAGGCAAGACUGGGAUUGGAUCACUUCUUAAACUUCCAGUUAAGAAUCUAGGUCCGCCCUCAA: 0.36
CCUUCCGGGCGCUCCUGGACCCUGGGGCAAACCUGUGACCCUUUUCUACUGGAAUAGAAAUGAGUUUUAUCAUCUUUGAAAAAUAAUUCACUCUUGAAGUAAUAAACGUU: 0.405
GGAAAUAAAACAGUUUUUGUUUGUUUCAGCUGGCCUCCUAUUUUGGACCCCCUGGGAAAGACAUGCAGUGUAGAUAAUGACUUUAGUAGCUCUCCAAUGAGAGCCUGACU: 0.495

Series 5 — method: RNA Bind-n-Seq; molecule type: RNA; matrix: in vitro; concentration: 200 nM; notes: whole 134-nt RNA, ends assumed; together with: 150 mM KCl; baseline: input library; direction: higher = stronger binding; measurement: log2 enrichment
Target: Ras GTPase-activating protein-binding protein 1, full length (G3BP1, Homo sapiens, UniProt Q13283)
Chain of UniProt Q13283 (whole entry, looked up): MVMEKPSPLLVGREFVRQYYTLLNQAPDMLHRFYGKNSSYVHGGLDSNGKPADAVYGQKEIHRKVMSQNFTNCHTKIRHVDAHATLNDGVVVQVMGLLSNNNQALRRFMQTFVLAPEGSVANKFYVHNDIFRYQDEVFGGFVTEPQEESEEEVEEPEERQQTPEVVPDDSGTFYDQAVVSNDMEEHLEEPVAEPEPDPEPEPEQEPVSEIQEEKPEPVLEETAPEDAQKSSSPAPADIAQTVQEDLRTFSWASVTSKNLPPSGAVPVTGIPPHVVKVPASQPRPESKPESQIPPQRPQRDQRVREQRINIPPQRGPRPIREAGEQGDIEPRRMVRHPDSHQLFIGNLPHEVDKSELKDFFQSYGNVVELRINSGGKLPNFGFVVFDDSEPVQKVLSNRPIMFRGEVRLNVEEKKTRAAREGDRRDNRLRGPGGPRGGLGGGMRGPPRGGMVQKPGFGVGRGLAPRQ
All sequences stand within: GGGAGUUCUACAGUCCGACGAUC … UGGAAUUCUCGGGUGUCAAGG
AAGUCCUGUGCUACACAUCGUAUGUACCGAAUCGGGUUUUGGGGUUUUGGUUUUGGAAAGUAUUAUGUUACGCCGUUCGGAUCUGCACUU: -0.806
CUGUGCUACACAUCGUAUGUACCGAAUCGGAAAAAAAGGGGAAAAAAAGGGGAAAAAAAGGAAAGUAUUAUGUUACGCCGUUCGGAUCUG: -0.805
CUGUGCUACACAUCGUAUGUACCGAAUCGGGGAAAAAAAGGGGUUUGGGGUUUUUUUGGGGAAAGUAUUAUGUUACGCCGUUCGGAUCUG: -0.0572
UGGCCAUGGUGGCAUGCGGGGAGGAAGAGGUGGCCUCAUGGAUCGUGGUGGUCCCGGUGGAAUGUUCAGAGGUGGCCGUGGUGGAGACAG: 0.378
UCAAGUCCUGUGCUACACAUCGUAUGUACCGAAUCGGGCCGGGCCGGGGCCGGGGAAAGUAUUAUGUUACGCCGUUCGGAUCUGCACUUC: 0.266
UUCCUCAAGUCCUGUGCUACACAUCGUAUGUACCGAAUCGGAGGGAGGAGGAAAGUAUUAUGUUACGCCGUUCGGAUCUGCACUUCCAGC: -0.661
UCCUGUGCUACACAUCGUAUGUACCGAAUCGGGGUUUUUUGGGGUUUUUUGGUUUUUUGGAAAGUAUUAUGUUACGCCGUUCGGAUCUGC: -0.202
CACAGACAACACGCACCCACACAGACACAGAGGGAAGGGGUUGGGAUGGGGACAGGGUGCACAGCAGGGCGGGGUUGGACCCCAGCCCCU: 1.8
CACAGACAACACGCACCCACACAGACACAGAGGGAAGGGGUUGGGAUGGGGACAGGGUGCACAGCGGGGCGGGGUAGGACCCCAGCCCCU: 1.77
UCCCCAGGGCCUGGCCUACUCAAUCUCUCCCACCUCAUCCUCUGGCAUGGACGCAGUCAGGGAGUCUGCUCCAAGCAGACACUGGUGGUC: -0.976
UGGGAGCUGGAUUUUGUUUAUUUUUUUAGCUCAUUUCCAGGGGUGGGAAUUUUUUUUUAAUAUGUGUCAUGAAUAAAGUUGUUUUUGAAA: -0.746
GCAGGAAGUAAAAACAAAUGGAAAUGCUUCGGAUAGUGGCAGGGGUGGGGGUUGCUAAGGAAAGGGUGGGAUGGGAGUGAAAAAAGAGUU: 0.589
UUCUCUUCACUCCCACCAGUGCGGGUGGUCUUUGCAGUGACUAUGGAAGGCAGUGCACGGAAAGUCAUCACUGUCCGGUCAGCCCUCAUU: -0.672
GUCCUGUGCUACACAUCGUAUGUACCGAAUCGGGGUUUGGGGUUUGGGGAAAAAGGGGAAAGUAUUAUGUUACGCCGUUCGGAUCUGCAC: 0.436

Repeated from above (series 4):
GGUGGGUGACACGCCUUUAAUCUCAGCACUUGGGAGGAAGAGGCAGGUGAAUCUCUGGGUUAGGACCAGUAUGGUUUGCAUAGCAAGUUCCAGAGUACACAGUGAAACAC: 0.351
AAAUAACACAGUUGGGUGUAGGCAUGGUAAAUCUGAGCAGUCCAUCCUUAGUAUGGUGGAAAGAUUUGUACCCUGACCCGCUCGAGUGGUGGUAGAUGUAUGUAAAUUAG: 0.839
CACACCACAAAUCUGCAGUUCAUUCUGUUUAUCCCAGGCAUUAAAUUCCUAAUUUCUCUAGAUAUUUAAGAAUGGCACACACUUUAAAUAUUUAUGGGUGAAUUGAUGCC: 0.736
GGAAAUAAAACAGUUUUUGUUUGUUUCAGCUGGCCUCCUAUUUUGGACCCCCUGGGAAAGACAUGCAGUGUAGAUAAUGACUUUAGUAGCUCUCCAAUGAGAGCCUGACU: 0.495
CUCUGGGCUUGACCAGUUCCCAAUCUCGUCCUCUGUCCCCAACUUCUUAAGCACAAUUGGGCUUCUUCCAUCUCCAGGUUUUCUGCCAUUCUUAACCAAGGCUGCCUCUU: 0.401
GGCCUCAGUUGCCCUGGCAGAAAAAUGGAUUCAACUUGGCCUUUCUGAAGGCAAGACUGGGAUUGGAUCACUUCUUAAACUUCCAGUUAAGAAUCUAGGUCCGCCCUCAA: 0.36
UUUUUGUAGUUUUGGUAUUUAAAGCAAAAAAACGAAAAACAAAAAACAAAAACAAACCUUUUGGUAACUGUGCACUGUGUCCUUUAGCCAGGGCCGUGCCAACUUAUGAA: 0.441
CCUUCCGGGCGCUCCUGGACCCUGGGGCAAACCUGUGACCCUUUUCUACUGGAAUAGAAAUGAGUUUUAUCAUCUUUGAAAAAUAAUUCACUCUUGAAGUAAUAAACGUU: 0.405
GGAACACUGUACUGGCCACUUACCCUCUGGGGCCUCAGCUUUCCCUCCGGAAGGCUGGGAGGAGGUGGGCUAGAUGAUCUUUGGAGCUUAAGGAGUCCCAGCCCUUUCUC: 0.435
UACCUUACUAGUAUGACUAUUAUCUUGACUUCUGGUAAUUUAUGUUCACUAUUCCAUUUGUGAAGUGUACUUUCAUUCUAAAGCCUCAGUAUAAGGCAUCCUAACUUACA: 0.672
